Published values of several laboratories.

The inhibition of CC12CCCC(NS(=O)(=O)c3cccc(F)c3)(C1)C1CC(C)(C)C1CC2 (centres unmarked) is reported as 97.4% (HT-29; cell growth or viability, CCK-8; 50 µM).
CN(C)C(=O)CNC(=O)c1ccc([C@H]2[C@@H](F)[C@@H](F)C[C@@H](F)[C@H]2F)cc1 gave a hepatic clearance of 4.9 mL/min/kg (liver microsome stability; cynomolgus liver microsomes; 1 µM).
COC1CCN(C(=O)/C=C/c2nn(Cc3cccc(C(F)(F)F)c3)c3nc(N(C)C)ncc23)CC1 has an EC50 of greater than 30 µM (FLO-1; cell growth or viability, resazurin; 5 days).
Cc1cc(Cl)cc(-c2ccnc3cc(CN4C(=O)C5C(C4=O)C5(C)C)sc23)c1C[C@@H]1CNCCO1 (some centres unmarked) — result for “G2/M phase cells”: 14.3% (CHP-212 parental; PI flow cytometry; 0.3 µM, 24 h).
The cell lysis of CC(=O)N[C@@H](CC(=O)O)C(=O)N[C@@H](CCC(=O)O)C(=O)N[C@@H](CC(C)C)C(=O)N[C@@H](CC(=O)O)C(=O)COC(=O)c1c(C)cccc1C is reported as 62.2% (THP-1 cells, LPS-primed; pyroptosis, LDH release; 25 µM, LPS 1 µg/mL, 4 h, together with: nigericin 5 µM, 2 h).
For CNS(=O)(=O)Nc1nccc(Cc2c(C)c3ccc(Oc4ncccc4F)cc3oc2=O)c1F, the IC50 was greater than 1 µM (NCI-H1703; cell viability; 7 days).
Under “log2 fold change”, Cc1ncsc1-c1ccc(C(C)NC(=O)C2CC(O)CN2C(=O)C(NC(=O)CCCCCCCCCCN2CCCC(Nc3ncc(Cl)c(Nc4ccccc4S(=O)(=O)C(C)C)n3)C2)C(C)(C)C)cc1 (centres unmarked) is recorded as -1.27 (22Rv1; RNA-seq, measured: SIK2 mRNA; concentration not given; relative to: DMSO).
The inhibition of C=CCc1c(O)cc2c(c1O)C(=O)CC(c1ccc(O)cc1)O2 (centres unmarked) is reported as 1.91% (HeLa; cell growth or viability, MTT; 6.25 µM, 48 h).
O=S(=O)(N[C@H]1CCO[C@@H](C2c3ccccc3CCc3ccccc32)C1)c1ccc(OC(F)(F)F)cc1: “I2PP2A protein level” “increased” (D341; immunoblot; concentration not given).
C=CC(=O)N1[C@@H](c2ccc3c(c2)OCO3)c2[nH]c3ccccc3c2C[C@H]1C(=O)NC1CC1 — result for “mean neuron degeneration”: 17.1% (rat DRG neurons; 10 µM, 48 h, together with: vincristine 40 nM).
O=C(C[Se]C(=O)c1cccnc1Nc1cccc(C(F)(F)F)c1)Nc1cccc(C(F)(F)F)c1: “mean growth percent” -95% (NCI60 leukemia subpanel; cell growth; 10 µM, 48 h, one-dose).
Cc1ccccc1S(=O)(=O)NC12CCCC(C)(CCC3C1CC3(C)C)C2 (centres unmarked) gave an inhibition of less than 50% (HT-29; cell growth or viability, CCK-8; 10 µM).
CCN(C(=O)c1cc(F)ccc1Oc1nncnc1N1CCC2(C1)CN([C@H](CCCN(C)CCOC)C(C)C)C2)C(C)C has a GI50 of greater than 10 µM (LoVo; cell growth or viability; 72 h).
The fold regulation of CCN(CC)CC(=O)Nc1cccc(-n2cc(-c3ccc4ccc(-c5cn(-c6cccc(NC(=O)CN(CC)CC)c6)nn5)cc4c3)nn2)c1 is reported as -1.11 (RCC4; PCR angiogenesis array, measured: ANG; 5 x IC50, 2 h, normoxia; relative to: untreated).
The IC50 of CC(C)c1ccc(N(C)c2ccc3c(c2)OCC[C@H]3CNc2cnccc2C(=O)O)cc1 is reported as no less than 10 µM (CCF-STTG1; cell growth or viability, ATP luminescence; 7 days).
Cc1ccc(-c2ccc(C3CCCCC3)cc2)cn1 has a hepatic clearance of 29 mL/min/kg (liver microsome stability; dog liver microsomes; 1 µM).
C=C(NC(=O)c1csc(-c2nc3c(cc2O)-c2nc(cs2)C(=O)NC(C(C)O)C(=O)NC(=C(C)OC)c2nc(cs2)C(=O)NC2c4nc(cs4)C(=O)NC(COC(=O)c4c5c6c(cccc6n4O)COC(=O)C(OC4CC(C)(O)C(N(C)C)C(C)O4)C2OC5)c2nc-3cs2)n1)C(N)=O (centres unmarked) has a Cmax of 25900 ng/mL (cynomolgus monkey, female, plasma; intravenous infusion, 3 mg/kg multiple doses, day 7).
COc1ccc(CNC[C@@](O)(COCc2ccc(OC)cc2)[C@@H]2CC[C@@H](C)C[C@H]2OCc2ccc(OC)cc2)cc1 gave an inhibition of 99.4% (HeLa; cell growth or viability, MTT; 30 µM, 72 h).
C=CC(=O)N1CCCC(n2c(=O)c3ncccc3n(Cc3ccc(Oc4ccccc4)cc3)c2=O)C1 (centres unmarked) — result for “late apoptotic cells”: 34.4% (OCI-LY19; annexin V/PI flow cytometry; 500 nM, 72 h).
CN1CCCNC(=O)c2cccc(c2)C(=O)NCCCN(C)CCCNc2cccc3c2C(=O)c2cccc(c2C3=O)NCCC1: “log2 fold change” -0.841 (SAS; RNA-Seq, measured: ITSN2 mRNA; 1 µM, 6 h; relative to: untreated cells).

Repeated from above:
The inhibition of CC12CCCC(NS(=O)(=O)c3cccc(F)c3)(C1)C1CC(C)(C)C1CC2 (centres unmarked) is reported as 97.4% (HT-29; cell growth or viability, CCK-8; 50 µM).
CN(C)C(=O)CNC(=O)c1ccc([C@H]2[C@@H](F)[C@@H](F)C[C@@H](F)[C@H]2F)cc1 gave a hepatic clearance of 4.9 mL/min/kg (liver microsome stability; cynomolgus liver microsomes; 1 µM).
